{"data": "Published values collected from several papers", "note": "Protocols differ between the studies behind these lines. “And” joins repeats or separate records; there may be more than shown. ± gives the spread as reported."}
{"SMILES": "Cn1cnc2ccc(Nc3c(F)ccc(NS(=O)(=O)N4CC(F)C4)c3Cl)c(Cl)c2c1=O", "system": "rat, plasma", "setting": "STD10, steady state", "endpoint": "AUC(tau)", "result": "4040 µg·h/mL"}
{"SMILES": "CC(C)[C@H](NC(=O)CNC(=O)[C@H](CCC(N)=O)NC(=O)[C@H](C)N)C(=O)O", "assay": "Definitely drug-related", "system": "human", "setting": "30 mg/kg, 3 days, thrice daily dosing", "endpoint": "subjects with adverse events", "result": "0%"}
{"SMILES": "COCCN1COc2c(cc3c4c(c(=O)oc3c2C)CCC4)C1", "system": "porcine brain lipid", "setting": "100 µg/mL, 18 h, pH 7.4", "endpoint": "permeability (Pe)", "result": "7.8 ± 0.25 ×10⁻⁶ cm/s"}
{"SMILES": "[2H]C([2H])([2H])C([2H])([2H])C([2H])([2H])OC(C(=O)OC1CCNCC1)(c1ccccc1)c1ccccc1", "system": "male human, plasma", "setting": "oral, 8 mg, multiple doses", "endpoint": "half-life", "result": "3.09 days"}
{"SMILES": "COc1ccc(NC(=O)Cn2c(=O)c3ccccc3n(CC(=O)Nc3cc([125I])c(OC)cc3OC)c2=O)cc1", "system": "rat, blood", "setting": "intravenous, 30 min", "endpoint": "tracer uptake", "result": "0.08 %ID/g"}
{"SMILES": "COC(=O)C[C@](O)(CCCC(C)(C)OC(C)=O)C(=O)O[C@@H]1C(OC)=C[C@]23CCCN2CCc2cc4c(cc2[C@H]13)OCO4", "system": "CD1 mouse, large intestine", "setting": "subcutaneous, 1 mg/kg, 24 h, below quantification limit 1.00 ng/mL", "endpoint": "tissue concentration", "result": "not detected"}
{"SMILES": "CC(C)C[C@H](NC(=O)[C@H](CCCCN)NC(=O)[C@H](CCC(=O)O)NC(=O)[C@H](C)NC(=O)[C@@H](NC(=O)[C@H](CCCCN)NC(=O)[C@H](CC(=O)O)NC(=O)[C@H](Cc1ccc(O)cc1)NC(=O)[C@H](Cc1ccccc1)NC(=O)[C@H](C)NC(=O)[C@H](CCCCN)NC(=O)[C@H](CC(C)C)NC(=O)[C@H](Cc1c[nH]c2ccccc12)NC(=O)[C@@H](N)CC(=O)O)C(C)C)C(=O)N[C@@H](CCCCN)C(=O)N[C@@H](CCC(=O)O)C(=O)N[C@@H](C)C(=O)N[C@@H](Cc1ccccc1)C(=O)N1CCC[C@H]1C(=O)N[C@@H](CC(=O)O)C(=O)N[C@@H](Cc1c[nH]c2ccccc12)C(=O)N[C@@H](C)C(=O)N[C@@H](CCCCN)C(=O)N[C@@H](C)C(=O)N[C@@H](C)C(=O)N[C@@H](Cc1ccc(O)cc1)C(=O)N[C@@H](CC(=O)O)C(=O)N[C@@H](CCCCN)C(=O)N[C@@H](C)C(=O)N[C@@H](C)C(=O)N[C@@H](CCC(=O)O)C(=O)N[C@@H](CCCCN)C(=O)N[C@@H](C)C(=O)N[C@@H](CCCCN)C(=O)N[C@@H](CCC(=O)O)C(=O)N[C@@H](C)C(=O)N[C@@H](C)C(=O)O", "system": "cynomolgus monkey male, plasma", "setting": "intravenous infusion, 25 mg/kg, day 1, 30 min infusion", "endpoint": "AUC(0-last)", "result": "1500 µg·h/mL"}
{"SMILES": "O=C(O)CCC(NP(=O)(O)OCCC[C@@H](NC(=O)CCC(NC(=O)CCCCCNC(=O)CCCCCNC(=O)c1ccc([18F])cc1)C(=O)O)C(=O)O)C(=O)O (some centres unmarked)", "assay": "radioactivity", "system": "mouse, CWR22Rv1 xenograft", "setting": "2 h", "how to read": "baseline: tumour over blood", "endpoint": "tumour to blood ratio", "result": "69.6 and 69 and 70"}
{"SMILES": "CSCC[C@H](NC(=O)CNC(=O)[C@H](CC(=O)O)NC(=O)[C@@H](NC(=O)[C@@H](NC(=O)[C@@H](NC(=O)CNC(=O)[C@H](CCC(N)=O)NC(=O)[C@H](CCSC)NC(=O)[C@H](CC(=O)O)NC(=O)[C@H](C)NC(=O)[C@H](C)NC(=O)[C@@H](NC(=O)[C@H](CO)NC(=O)[C@@H](N)CC(C)C)[C@@H](C)O)C(C)C)C(C)C)[C@@H](C)O)C(=O)N[C@@H](C)C(=O)N[C@@H](CO)C(=O)NCC(=O)N[C@@H](CC(C)C)C(=O)N[C@@H](CC(=O)O)C(=O)N[C@@H](CCCCN)C(=O)N[C@@H](CC(=O)O)C(=O)N[C@@H](Cc1ccc(O)cc1)C(=O)N[C@@H](CC(C)C)C(=O)N[C@@H](CCCCN)C(=O)N1CCC[C@H]1C(=O)N[C@@H](CC(=O)O)C(=O)N[C@@H](CC(=O)O)C(=O)O", "system": "human, serum", "setting": "intravenous, 1.66 mg/kg, patients, infusion", "endpoint": "AUC(0-t)", "result": "1320 ng·h/mL"}
{"SMILES": "O=c1c2ccccc2[se]n1CCCCn1[se]c2ccccc2c1=O", "system": "20% Soluplus in water", "setting": "24 h, 25 °C, 200 mg/mL", "endpoint": "solubility", "result": "575 ± 34 µg/mL"}
{"SMILES": "C/C=C/C=C/C/C=C/CCCCCCCc1cccc(O)c1O", "system": "female Kunming mice tumour-bearing, kidneys", "setting": "intravenous, 10 mg/kg, 8 h", "endpoint": "tissue concentration", "result": "4250 ± 1020 ng/g"}
{"SMILES": "CC(C)(CCCC/C=C/CCCCCC(C)(C)C(=O)O)C(=O)O", "system": "C57BL/6J mice, liver", "setting": "oral, 30 mg/kg, 1 h", "endpoint": "conversion to acyl-CoA", "result": "11.9%"}
{"SMILES": "CN(C)C(CNC(=O)Nc1cc(C(F)(F)F)ccc1N1CCOCC1)c1ccncc1 (centres unmarked)", "system": "mouse, serum", "setting": "intraperitoneal, 180 mg/kg single dose", "endpoint": "serum total bilirubin", "result": "0.2 mg/dL"}
{"SMILES": "C[C@@H]1CC[C@H]2[C@@H](C)CO[C@@H]3O[C@@]4(C)CC[C@@H]1[C@]32OO4", "system": "Sprague-Dawley rat, male", "setting": "oral, 100 mg/kg", "endpoint": "AUC extrapolated", "result": "4.92 ± 1.35%"}
{"SMILES": "CC[C@H](C)[C@H](NC(=O)[C@H](CCCCN)NC(=O)[C@H](Cc1ccccc1)NC(=O)[C@H]1CCC[C@@H]1NC(=O)[C@@H](N)CCCCN)C(=O)N[C@@H](C)CC(=O)N[C@@H](CCCCN)C(=O)N[C@@H](CCCCN)C(=O)N[C@H]1CCC[C@@H]1C(=O)N[C@H](C(=O)N[C@@H](CCCCN)C(=O)N[C@H](C(=O)N[C@H](CC(N)=O)Cc1ccccc1)[C@@H](C)O)C(C)C", "assay": "RP-HPLC C18", "setting": "hydrophobicity", "endpoint": "retention time", "result": "14.02 ± 0.04 min"}
{"SMILES": "O=C([O-])C[N+]12CC(=O)[O][Re-2]1[O]P(=O)([O-])C2.[C-]#[O+].[C-]#[O+].[C-]#[O+] (centres unmarked)", "assay": "HPLC", "system": "aqueous solution", "setting": "1 d, pH 6, room temperature", "endpoint": "isomer fraction at equilibrium", "result": "48%"}
{"SMILES": "CCNc1cc2[o+]c3cc(NCC)c(C)cc3c(-c3ccccc3C(=O)OCCOCC[18F])c2cc1C", "assay": "PET", "system": "rat", "setting": "dose not given, 55 min", "how to read": "baseline: value at 5 min", "endpoint": "liver concentration", "result": "25%"}
{"SMILES": "CC(C)C[C@@H]1NC(=O)[C@@H](Cc2ccccc2)NC(=O)[C@H](CCN)NC(=O)[C@@H](NC(=O)[C@H](CN)NC(=O)[C@@H](NC(=O)CC(CN)Cc2ccccc2)[C@@H](C)O)CCNC(=O)[C@H]([C@@H](C)O)NC(=O)[C@H](CCN)NC(=O)[C@H](CCN)NC1=O (some centres unmarked)", "assay": "ELISA", "system": "male CD-1 mouse, urine", "setting": "subcutaneous, 25 mg/kg, 4 doses every 8 h, 24 h urine collection, nephrotoxicity", "endpoint": "urinary cystatin C excretion", "result": "893 ng/24 h"}
{"SMILES": "CSCC[C@H](NC(=O)[C@H](CO)NC(=O)[C@H](Cc1ccc(O)cc1)NC(=O)[C@@H](N)CO)C(=O)N[C@@H](CCC(=O)O)C(=O)N[C@@H](Cc1c[nH]cn1)C(=O)N[C@@H](Cc1ccccc1)C(=O)N[C@@H](CCCNC(=N)N)C(=O)N[C@@H](Cc1c[nH]c2ccccc12)C(=O)NCC(=O)N[C@@H](CCCCN)C(=O)N1CCC[C@H]1C(=O)N[C@H](C(=O)NCC(=O)N[C@@H](CCCCN)C(=O)N[C@@H](CCCCN)C(=O)N[C@@H](CCCNC(=N)N)C(=O)N[C@@H](CCCNC(=N)N)C(=O)N1CCC[C@H]1C(=O)N[C@H](C(=O)N[C@@H](CCCCN)C(=O)N[C@H](C(=O)N[C@@H](Cc1ccc(O)cc1)C(=O)N1CCC[C@H]1C(=O)N[C@@H](CC(=O)O)C(=O)NCC(=O)N[C@@H](C)C(=O)N[C@@H](CCC(=O)O)C(=O)N[C@@H](CC(=O)O)C(=O)N[C@@H](CCC(=O)O)C(=O)N[C@@H](CC(C)C)C(=O)N[C@@H](C)C(=O)N[C@@H](CCC(=O)O)C(=O)N[C@@H](C)C(=O)N[C@@H](Cc1ccccc1)C(=O)N1CCC[C@H]1C(=O)N[C@@H](CC(C)C)C(=O)N[C@@H](CCC(=O)O)C(=O)N[C@@H](Cc1ccccc1)C(=O)O)C(C)C)C(C)C)C(C)C", "system": "healthy human subjects, plasma", "setting": "subcutaneous, 40 IU twice weekly, day 15, repository corticotropin injection", "endpoint": "AUC(0-last)", "result": "0.000415 µg·h/mL"}
{"SMILES": "N=C(N)NCc1ccc(C(=O)NCCCC[C@H](NC(=O)N[C@@H](CCC(=O)O)C(=O)O)C(=O)O)cc1[211At]", "system": "SCID mouse, PC-3 xenografts, liver", "setting": "2 h", "endpoint": "tissue uptake", "result": "5.62 ± 1.17 %ID/g"}
{"SMILES": "COC1CC(OC2CCC3(C)C(CCC45OC46CCC(C(C)=O)C6(C)C(OC(C)=O)C(OC(=O)c4ccccc4)C35)C2)OC(C)C1OC1OC(C)C(O)C(OC)C1O (centres unmarked)", "system": "Caco-2", "setting": "10 µM", "endpoint": "Papp A→B", "result": "7.66 ×10⁻⁶ cm/s"}
{"SMILES": "COc1cc2ccnc(Cc3ccc(O[11CH3])c(OC)c3)c2cc1OC", "system": "Sprague-Dawley rat, hippocampus", "setting": "i.v., 5 min", "endpoint": "brain uptake", "result": "0.188 %ID/g"}
{"SMILES": "O=c1cc(-c2ccccc2)oc2c(Br)c(O)c(O)c(O)c12", "system": "C57BL/6 mouse, plasma", "setting": "intravenous, 10 mg/kg, single dose", "endpoint": "clearance", "result": "1.35 mL/min"}
{"note": "A few entries again:"}
{"SMILES": "CSCC[C@H](NC(=O)CNC(=O)[C@H](CC(=O)O)NC(=O)[C@@H](NC(=O)[C@@H](NC(=O)[C@@H](NC(=O)CNC(=O)[C@H](CCC(N)=O)NC(=O)[C@H](CCSC)NC(=O)[C@H](CC(=O)O)NC(=O)[C@H](C)NC(=O)[C@H](C)NC(=O)[C@@H](NC(=O)[C@H](CO)NC(=O)[C@@H](N)CC(C)C)[C@@H](C)O)C(C)C)C(C)C)[C@@H](C)O)C(=O)N[C@@H](C)C(=O)N[C@@H](CO)C(=O)NCC(=O)N[C@@H](CC(C)C)C(=O)N[C@@H](CC(=O)O)C(=O)N[C@@H](CCCCN)C(=O)N[C@@H](CC(=O)O)C(=O)N[C@@H](Cc1ccc(O)cc1)C(=O)N[C@@H](CC(C)C)C(=O)N[C@@H](CCCCN)C(=O)N1CCC[C@H]1C(=O)N[C@@H](CC(=O)O)C(=O)N[C@@H](CC(=O)O)C(=O)O", "system": "human, serum", "setting": "intravenous, 1.66 mg/kg, patients, infusion", "endpoint": "AUC(0-t)", "result": "1320 ng·h/mL"}
{"SMILES": "C/C=C/C=C/C/C=C/CCCCCCCc1cccc(O)c1O", "system": "female Kunming mice tumour-bearing, kidneys", "setting": "intravenous, 10 mg/kg, 8 h", "endpoint": "tissue concentration", "result": "4250 ± 1020 ng/g"}
{"SMILES": "O=C(O)CCC(NP(=O)(O)OCCC[C@@H](NC(=O)CCC(NC(=O)CCCCCNC(=O)CCCCCNC(=O)c1ccc([18F])cc1)C(=O)O)C(=O)O)C(=O)O (some centres unmarked)", "assay": "radioactivity", "system": "mouse, CWR22Rv1 xenograft", "setting": "2 h", "how to read": "baseline: tumour over blood", "endpoint": "tumour to blood ratio", "result": "69.6 and 69 and 70"}
